Results from different studies.
Each numbered part is a random draw from the data of one study; scales do not carry over between parts. Values joined by “and” are separate records of one study, mostly repeats; a detail may differ.

Study 1 — read-out: enzyme activity; action: inhibitor; concentration: 0.5 µM; baseline: control; endpoint: remaining activity
Target: Homeodomain-interacting protein kinase 1 (HIPK1, Homo sapiens, UniProt Q86Z02)
Sequence of UniProt Q86Z02 (whole entry, looked up): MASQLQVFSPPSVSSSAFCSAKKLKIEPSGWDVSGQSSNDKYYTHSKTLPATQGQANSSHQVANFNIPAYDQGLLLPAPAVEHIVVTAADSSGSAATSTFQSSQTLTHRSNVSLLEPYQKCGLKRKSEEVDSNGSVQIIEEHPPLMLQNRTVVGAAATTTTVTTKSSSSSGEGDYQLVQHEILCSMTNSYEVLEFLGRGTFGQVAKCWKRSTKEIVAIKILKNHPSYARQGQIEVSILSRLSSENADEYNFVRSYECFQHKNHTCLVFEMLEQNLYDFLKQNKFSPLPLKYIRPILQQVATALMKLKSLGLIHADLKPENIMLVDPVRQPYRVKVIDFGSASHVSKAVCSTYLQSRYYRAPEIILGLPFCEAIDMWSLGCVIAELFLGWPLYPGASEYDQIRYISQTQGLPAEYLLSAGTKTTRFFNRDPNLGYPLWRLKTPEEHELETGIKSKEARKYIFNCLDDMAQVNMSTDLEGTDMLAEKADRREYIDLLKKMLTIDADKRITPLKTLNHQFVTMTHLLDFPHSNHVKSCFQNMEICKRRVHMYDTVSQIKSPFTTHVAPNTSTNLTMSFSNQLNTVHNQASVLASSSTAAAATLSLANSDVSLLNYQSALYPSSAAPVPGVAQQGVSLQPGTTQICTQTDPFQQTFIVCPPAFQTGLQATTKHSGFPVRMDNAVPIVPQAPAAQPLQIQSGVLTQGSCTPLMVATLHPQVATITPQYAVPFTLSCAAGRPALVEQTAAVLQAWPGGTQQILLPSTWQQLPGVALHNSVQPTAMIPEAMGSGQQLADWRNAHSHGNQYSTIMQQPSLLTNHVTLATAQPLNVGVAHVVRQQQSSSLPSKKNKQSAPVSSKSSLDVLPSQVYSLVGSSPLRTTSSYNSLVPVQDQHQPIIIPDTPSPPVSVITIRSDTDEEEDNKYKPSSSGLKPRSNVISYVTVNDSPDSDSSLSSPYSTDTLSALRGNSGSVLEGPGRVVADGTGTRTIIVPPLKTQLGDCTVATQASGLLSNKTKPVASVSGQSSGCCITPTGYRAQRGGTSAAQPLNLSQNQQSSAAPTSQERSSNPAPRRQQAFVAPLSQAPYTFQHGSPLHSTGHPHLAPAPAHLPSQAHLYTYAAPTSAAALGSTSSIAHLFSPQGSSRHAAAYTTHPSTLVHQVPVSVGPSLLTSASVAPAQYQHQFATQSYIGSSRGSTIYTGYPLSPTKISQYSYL
SMILES = COc1cc2ncnc(Nc3cccc(Cl)c3)c2cc1OC; value = 98.7%
SMILES = CN(C)C[C@H]1CCn2c(c(C3=C(c4cn(C)c5ccccc45)C(=O)NC3=O)c3ccccc32)C1; value = 101%
SMILES = O=c1cc(-c2cccc3c2Sc2ccccc2S3)oc(N2CCOCC2)c1; value = 99.6%
SMILES = Nc1cccc(-c2cc3c(Oc4cccc(O)c4)ncnc3[nH]2)c1; value = 82.7%
SMILES = O=C(NC(NC(=S)Nc1ccc(F)c([N+](=O)[O-])c1)C(Cl)(Cl)Cl)C(c1ccccc1)c1ccccc1 (stereo not drawn); value = 108%
SMILES = COc1cc2ncnc(Nc3ccc(O)c(Br)c3)c2cc1OC; value = 104%
SMILES = O=C(Nc1cccc(Nc2nccc(Nc3cccc(C(F)(F)F)c3)n2)c1)C1CC1; value = 98.7%
SMILES = c1ccc(-c2[nH]ncc2-c2ccnc3ccccc23)nc1; value = 99.9%
SMILES = Cc1nc2cc3nc(-c4cccs4)cnc3cc2n1C; value = 103%
SMILES = COc1cc2c(cc1OC)-c1[nH]nc(Nc3cccc(F)c3)c1C2; value = 96.4%
SMILES = O=C1c2ccccc2-c2n[nH]c3cccc1c23; value = 93.9%
SMILES = Ic1cccc(CSc2nnc(-c3ccncc3)o2)c1; value = 105%
SMILES = N#Cc1c(NC(=O)c2cccc3ccccc23)sc2c1CCCC2; value = 107%
SMILES = Cc1cn(-c2cc(NC(=O)c3ccc(C)c(Nc4nccc(-c5cccnc5)n4)c3)cc(C(F)(F)F)c2)cn1; value = 97.7%
SMILES = c1ccc(-c2cnc(Nc3ccc(OCCN4CCCC4)cc3)s2)cc1; value = 91.3%
SMILES = CCN(CC)CCNC(=O)c1c(C)[nH]c(/C=C2\C(=O)Nc3ccc(F)cc32)c1C; value = 71.3%
SMILES = Cc1cc2ncc(-c3ccccc3)nc2cc1C; value = 105%
SMILES = Cn1nc2c3c(cccc31)C(=O)c1ccccc1-2; value = 112%
SMILES = CCN(CC)CCNC(=O)c1c(C)[nH]c(/C=C2\C(=O)Nc3ccc(Cl)cc32)c1C; value = 96.9%
SMILES = O=C1C(Cl)=C(N2C(=O)CCC2=O)C(=O)c2ccccc21; value = 104%
SMILES = C[C@@H]1CCN(C(=O)CC#N)C[C@@H]1N(C)c1ncnc2[nH]ccc12; value = 98.1%
SMILES = N#C/C(=C\c1ccc(O)c(O)c1)C(=O)NCc1ccccc1; value = 101%
SMILES = CCN(CC)C(=O)c1ccc(Nc2nc(OCC3CCCCC3)c3[nH]cnc3n2)cc1; value = 104%

Study 2 — host: mouse; matrix: microsomes or S9; concentration: 2 µM; time: 0.5 h; endpoint: remaining compound
SMILES = c1ccc(-c2nc(Cc3nc4ccccc4[nH]3)no2)cc1; value = 3.87%
SMILES = CCOC(=O)c1cn(-c2nc(Cl)ncc2Cl)cc1C(=O)OCC; value = 0.427%
SMILES = CN1CC(c2n[nH]c(=O)n2CCc2ccccc2F)CC1=O (stereo not drawn); value = 53.6%
SMILES = N#Cc1ccc(Oc2ccc(NC(=O)NCc3cc[nH]n3)cn2)cc1; value = 46.7%
SMILES = CC1=CC(C)(C)Oc2cc(C)c(C(=O)N=C(N)N)cc21; value = 19.3%
SMILES = CCn1cc(S(=O)(=O)N2CCN(S(=O)(=O)c3cnn(C)c3)CC2)cn1; value = 69.7%
SMILES = O=C1NCCN1C(=O)N1CCCC(Oc2cccnn2)C1 (stereo not drawn); value = > 99%
SMILES = Cn1ncc2cc(-c3ccc(C(C)(C)C)cc3)c(-c3ccc(C(C)(C)C)cc3)cc21; value = 33.9%
SMILES = O=C1COc2ccc(Cl)cc2CN1Cc1cc(F)cc(F)c1; value = 14.7%
SMILES = Cc1c(-c2ccccc2)sc2ncnc(NS(=O)(=O)c3ccc(Cl)s3)c12; value = 8.82%
SMILES = CCc1nc(-n2nc(C)cc2C)c2cc(C)sc2n1; value = 30%
SMILES = CC(C)CN(CC(C)C)C(=O)Cn1nc(C(C)(C)C)ccc1=O; value = 0.104%
SMILES = COc1cc(=O)[nH]cc1C(=O)N1CCOCC1c1ccc(F)cc1 (stereo not drawn); value = 71.8%
SMILES = O=C1OC(C(=O)O)Cc2c(F)cc(Br)cc21 (stereo not drawn); value = 83.9%
SMILES = CC(=O)Nc1ccc(Cl)c(C(=O)N(C)C(CO)C(C)(C)C)c1 (stereo not drawn); value = 39.6%
SMILES = COc1ccc(C(CC(N)=O)c2c(Cc3ccc4c(c3)CCO4)[nH][nH]c2=O)cc1OC (stereo not drawn); value = 47.4%
SMILES = COc1ncc(-c2ccc(-c3ccn[nH]3)cc2)c(OC)n1; value = 28.4%

Study 3 — cell line: normal organoid sample F; method: CellTiter-Glo; host: human; matrix: normal-adjacent epithelium; concentration: 1 µM; baseline: DMSO; endpoint: viability
SMILES = CN1CCN(Cc2ccc(Nc3ncc(Cl)c(Nc4ccccc4S(=O)(=O)N(C)C)n3)cc2)CC1; value = 0.5% and 0.552%
SMILES = COc1cc(-c2cn(C3CCc4c(F)cccc4N(CC(F)(F)F)C3=O)nn2)ccc1-n1cnc(C)c1 (stereo not drawn); value = 106% and 110%
SMILES = CO[C@H]1CC[C@H](CNc2ccc(S(=O)(=O)NC(=O)c3ccc(N4CCN(CC5=C(c6ccc(Cl)cc6)CC(C)(C)CC5)CC4)cc3Oc3cnc4[nH]ccc4c3)cc2[N+](=O)[O-])CC1; value = 59.6% and 73.4%
SMILES = Cc1cn(-c2cc(NC(=O)c3ccc4c(c3)CN(c3cncnc3)C[C@@H]4C)cc(C(F)(F)F)c2)cn1; value = 93.9% and 119%
SMILES = CN1CCN(c2cnc3c(C4CCN(C(=O)c5ccc(OC(F)(F)F)cc5N)CC4)ncnc3c2)CC1; value = 109% and 93.9%
SMILES = C[C@@H](NC(=O)Nc1cc2[nH]ncc2c(CO)n1)c1ccccc1; value = 103% and 96.2%
SMILES = Cc1noc([C@H]2C[C@@H](c3ccc(C(F)(F)F)cc3)CN(C(=O)N3CCS(=O)(=O)C3)C2)n1; value = 114% and 87.1%
SMILES = C[C@@H](c1cccc(C#N)c1)n1cc(Cl)cc(C(N)=O)c1=N; value = 76.8% and 104%
SMILES = Cn1cncc1[C@@](O)(COc1ccc(C#N)cc1-c1ccc(OC(F)(F)F)cc1)c1ccc(C#N)cc1; value = 113% and 102%
SMILES = CCC(=O)N[C@H]1CC[C@@H](C(=O)N(C)c2ccc(-c3nc4ccccc4o3)cc2)C1; value = 12.1% and 11%
SMILES = Cn1cnc2c(F)c(Nc3ccc(Br)cc3Cl)c(C(=O)NOCCO)cc21; value = 54.5% and 78.3%
SMILES = COc1cc(-c2cn(C3CCc4ccccc4N(CC(F)(F)F)C3=O)nn2)ccc1-n1ccc(C)n1 (stereo not drawn); value = 83.4% and 112%

Study 4 — cell line: mouse MPNST tumor cells; method: high-content nuclear imaging; measured: cell number; concentration: 10 µM; time: 12 h; setting: mean of 2 replicates; baseline: plate mean; reading: higher = more cells; endpoint: nuclei count
SMILES = CC(C)(C)c1cc(C(C)(C)C)nc(N2CCn3c(nnc3-c3ccc(OC(F)(F)F)cc3)C2)n1; value = 4.17 z-score
SMILES = O=C(O)CCCc1ccccc1; value = -0.0138 z-score
SMILES = c1cnc2cc3c(cc2n1)[C@@H]1CNC[C@H]3C1; value = 1.81 z-score and -0.756 z-score
SMILES = CCN(CC)CCNC(=O)COc1ccc(OC)cc1; value = 1.38 z-score
SMILES = CN1CCN(CCCN2c3ccccc3Sc3ccc(C(F)(F)F)cc32)CC1; value = -5.83 z-score
SMILES = N=C(NCCCCCCNC(=N)NC(=N)Nc1ccc(Cl)cc1)NC(=N)Nc1ccc(Cl)cc1; value = -5.24 z-score
SMILES = CC(C)(C)C(=O)OCOC(=O)[C@@H]1N2C(=O)[C@@H](NC(=O)[C@H](N)c3ccccc3)[C@H]2SC1(C)C; value = 0.88 z-score
SMILES = NCCC[C@H](N)CC(=O)N[C@H]1CNC(=O)[C@H]([C@H]2C[C@H](O)NC(N)=N2)NC(=O)/C(=C/NC(N)=O)NC(=O)[C@H](CO)NC(=O)[C@H](CO)NC1=O; value = -0.404 z-score
SMILES = Nc1nc(O)c2ncn(CCC(CO)CO)c2n1; value = 0.359 z-score
SMILES = CCCCC1C(=O)N(c2ccccc2)N(c2ccccc2)C1=O; value = 0.327 z-score and 0.375 z-score
SMILES = COc1cccc2c1C(=O)c1c(O)c3c(c(O)c1C2=O)C[C@@](O)(C(C)=O)C[C@@H]3O[C@H]1C[C@H](N)[C@H](O)[C@H](C)O1; value = -5.25 z-score
SMILES = COc1ccc(-c2cnc3c(-c4cccc5ncccc45)cnn3c2)cc1; value = -0.208 z-score
SMILES = CN(C)c1cc(NC(=O)CNC(C)(C)C)c(O)c2c1CC1CC3C(N(C)C)C(=O)C(C(N)=O)=C(O)C3(O)C(=O)C1=C2O (stereo not drawn); value = -0.0851 z-score
SMILES = Cc1nc(Nc2n[nH]c3c2CN(C(=O)N[C@H](CN(C)C)c2ccccc2)C3(C)C)c2sccc2n1; value = -5.86 z-score

For quick reference, copied from above (study 3):
SMILES = C[C@@H](NC(=O)Nc1cc2[nH]ncc2c(CO)n1)c1ccccc1; value = 103% and 96.2%
SMILES = Cn1cnc2c(F)c(Nc3ccc(Br)cc3Cl)c(C(=O)NOCCO)cc21; value = 54.5% and 78.3%
SMILES = COc1cc(-c2cn(C3CCc4ccccc4N(CC(F)(F)F)C3=O)nn2)ccc1-n1ccc(C)n1 (stereo not drawn); value = 83.4% and 112%
SMILES = CN1CCN(Cc2ccc(Nc3ncc(Cl)c(Nc4ccccc4S(=O)(=O)N(C)C)n3)cc2)CC1; value = 0.5% and 0.552%
SMILES = COc1cc(-c2cn(C3CCc4c(F)cccc4N(CC(F)(F)F)C3=O)nn2)ccc1-n1cnc(C)c1 (stereo not drawn); value = 106% and 110%
SMILES = C[C@@H](c1cccc(C#N)c1)n1cc(Cl)cc(C(N)=O)c1=N; value = 76.8% and 104%
SMILES = Cc1cn(-c2cc(NC(=O)c3ccc4c(c3)CN(c3cncnc3)C[C@@H]4C)cc(C(F)(F)F)c2)cn1; value = 93.9% and 119%
SMILES = CCC(=O)N[C@H]1CC[C@@H](C(=O)N(C)c2ccc(-c3nc4ccccc4o3)cc2)C1; value = 12.1% and 11%
SMILES = Cc1noc([C@H]2C[C@@H](c3ccc(C(F)(F)F)cc3)CN(C(=O)N3CCS(=O)(=O)C3)C2)n1; value = 114% and 87.1%
SMILES = CN1CCN(c2cnc3c(C4CCN(C(=O)c5ccc(OC(F)(F)F)cc5N)CC4)ncnc3c2)CC1; value = 109% and 93.9%
